Experimental data gathered from unrelated publications.
Protocols differ between the studies behind these lines. ± marks the error that the study gave.
HY5: HY5 1-158 (Solanum lycopersicum, UniProt Q9SM50)
UniProt Q9SM50, sequence (whole entry, looked up): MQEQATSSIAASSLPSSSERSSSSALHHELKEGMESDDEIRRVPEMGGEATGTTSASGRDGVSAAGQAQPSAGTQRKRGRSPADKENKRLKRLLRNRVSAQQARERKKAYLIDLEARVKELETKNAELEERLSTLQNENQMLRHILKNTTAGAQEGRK
RAP1/Yku70/Yku80: RAP1/Yku70/Yku80 (Saccharomyces cerevisiae)
UniProt Q6R0H1, sequence (whole entry, looked up): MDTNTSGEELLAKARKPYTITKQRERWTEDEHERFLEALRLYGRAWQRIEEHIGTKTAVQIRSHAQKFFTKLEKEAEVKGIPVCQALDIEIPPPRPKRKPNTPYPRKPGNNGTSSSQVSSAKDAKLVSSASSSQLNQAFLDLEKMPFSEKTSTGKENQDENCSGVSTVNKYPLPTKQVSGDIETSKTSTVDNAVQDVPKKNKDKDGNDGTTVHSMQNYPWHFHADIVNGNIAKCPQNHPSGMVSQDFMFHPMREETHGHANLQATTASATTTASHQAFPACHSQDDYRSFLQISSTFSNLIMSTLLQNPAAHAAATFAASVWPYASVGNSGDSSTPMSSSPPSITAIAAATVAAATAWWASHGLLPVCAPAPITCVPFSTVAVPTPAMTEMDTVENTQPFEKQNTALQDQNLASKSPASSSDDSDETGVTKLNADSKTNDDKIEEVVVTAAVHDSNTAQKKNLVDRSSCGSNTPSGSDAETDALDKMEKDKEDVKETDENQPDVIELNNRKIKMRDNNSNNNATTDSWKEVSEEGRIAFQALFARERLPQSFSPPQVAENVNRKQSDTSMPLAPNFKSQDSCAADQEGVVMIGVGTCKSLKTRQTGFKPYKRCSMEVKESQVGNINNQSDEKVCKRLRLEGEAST
UniProt P55265, sequence (whole entry, looked up): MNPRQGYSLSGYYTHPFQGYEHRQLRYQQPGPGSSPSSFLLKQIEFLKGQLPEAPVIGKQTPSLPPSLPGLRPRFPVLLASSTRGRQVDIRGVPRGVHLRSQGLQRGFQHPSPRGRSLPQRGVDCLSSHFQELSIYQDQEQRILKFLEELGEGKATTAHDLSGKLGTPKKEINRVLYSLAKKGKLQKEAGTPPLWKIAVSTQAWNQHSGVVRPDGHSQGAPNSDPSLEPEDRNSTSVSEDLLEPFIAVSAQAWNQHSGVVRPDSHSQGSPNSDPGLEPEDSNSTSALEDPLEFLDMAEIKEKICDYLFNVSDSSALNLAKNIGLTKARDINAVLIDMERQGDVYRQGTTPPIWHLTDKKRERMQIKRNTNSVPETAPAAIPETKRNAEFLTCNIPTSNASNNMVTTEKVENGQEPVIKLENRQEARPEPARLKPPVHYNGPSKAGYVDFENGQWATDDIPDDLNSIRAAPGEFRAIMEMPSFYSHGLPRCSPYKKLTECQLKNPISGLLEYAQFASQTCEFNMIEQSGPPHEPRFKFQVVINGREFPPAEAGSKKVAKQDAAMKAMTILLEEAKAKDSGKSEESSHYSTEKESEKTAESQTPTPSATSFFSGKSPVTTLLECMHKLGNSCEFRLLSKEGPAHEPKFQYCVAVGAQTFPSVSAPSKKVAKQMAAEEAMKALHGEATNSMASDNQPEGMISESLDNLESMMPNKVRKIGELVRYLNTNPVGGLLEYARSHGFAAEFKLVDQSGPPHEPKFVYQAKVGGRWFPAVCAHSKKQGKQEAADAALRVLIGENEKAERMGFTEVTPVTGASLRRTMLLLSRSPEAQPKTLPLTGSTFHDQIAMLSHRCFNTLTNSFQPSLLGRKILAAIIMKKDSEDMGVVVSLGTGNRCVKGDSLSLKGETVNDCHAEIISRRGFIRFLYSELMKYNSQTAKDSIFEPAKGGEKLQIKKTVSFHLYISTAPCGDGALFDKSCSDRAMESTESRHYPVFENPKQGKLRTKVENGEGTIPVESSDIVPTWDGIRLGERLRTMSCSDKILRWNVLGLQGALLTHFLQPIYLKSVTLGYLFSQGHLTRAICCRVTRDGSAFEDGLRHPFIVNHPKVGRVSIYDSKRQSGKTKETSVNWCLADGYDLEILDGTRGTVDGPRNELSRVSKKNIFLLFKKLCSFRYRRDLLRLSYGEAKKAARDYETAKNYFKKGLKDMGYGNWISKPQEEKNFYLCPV
UniProt A0A0P0XBU0, sequence (whole entry, looked up): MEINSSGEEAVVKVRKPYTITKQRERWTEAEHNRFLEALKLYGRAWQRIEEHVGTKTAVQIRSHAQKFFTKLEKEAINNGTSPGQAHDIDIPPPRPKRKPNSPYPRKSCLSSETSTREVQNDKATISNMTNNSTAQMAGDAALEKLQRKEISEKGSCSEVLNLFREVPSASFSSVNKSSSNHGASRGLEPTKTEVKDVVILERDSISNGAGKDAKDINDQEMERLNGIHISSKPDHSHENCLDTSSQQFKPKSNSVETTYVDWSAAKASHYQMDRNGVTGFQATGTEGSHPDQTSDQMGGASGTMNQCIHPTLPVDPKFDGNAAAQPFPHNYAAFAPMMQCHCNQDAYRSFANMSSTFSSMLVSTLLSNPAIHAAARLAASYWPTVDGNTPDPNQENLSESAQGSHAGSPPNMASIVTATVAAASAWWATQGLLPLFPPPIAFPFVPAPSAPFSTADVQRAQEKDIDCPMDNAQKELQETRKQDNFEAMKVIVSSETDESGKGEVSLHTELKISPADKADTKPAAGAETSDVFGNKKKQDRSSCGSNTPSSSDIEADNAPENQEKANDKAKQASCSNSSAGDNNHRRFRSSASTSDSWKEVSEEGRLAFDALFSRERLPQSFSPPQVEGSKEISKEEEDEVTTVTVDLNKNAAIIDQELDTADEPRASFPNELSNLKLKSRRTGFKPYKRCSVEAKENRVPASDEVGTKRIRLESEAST
UniProt O00425, sequence (whole entry, looked up): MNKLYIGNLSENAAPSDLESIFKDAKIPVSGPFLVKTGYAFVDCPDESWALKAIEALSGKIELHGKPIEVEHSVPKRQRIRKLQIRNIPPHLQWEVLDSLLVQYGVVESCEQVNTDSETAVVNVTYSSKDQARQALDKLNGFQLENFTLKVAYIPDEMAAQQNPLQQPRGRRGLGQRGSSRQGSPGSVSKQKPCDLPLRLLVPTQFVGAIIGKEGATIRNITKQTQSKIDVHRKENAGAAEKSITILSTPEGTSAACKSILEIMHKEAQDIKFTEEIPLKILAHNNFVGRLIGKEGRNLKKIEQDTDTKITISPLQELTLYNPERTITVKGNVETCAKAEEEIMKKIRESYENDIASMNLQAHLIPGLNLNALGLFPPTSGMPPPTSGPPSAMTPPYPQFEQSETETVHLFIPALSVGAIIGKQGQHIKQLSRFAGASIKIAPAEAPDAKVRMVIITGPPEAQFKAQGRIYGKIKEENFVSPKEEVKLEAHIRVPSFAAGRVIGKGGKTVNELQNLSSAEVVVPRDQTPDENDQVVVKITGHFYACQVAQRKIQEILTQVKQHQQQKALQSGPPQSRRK
UniProt Q13YL3, sequence (whole entry, looked up): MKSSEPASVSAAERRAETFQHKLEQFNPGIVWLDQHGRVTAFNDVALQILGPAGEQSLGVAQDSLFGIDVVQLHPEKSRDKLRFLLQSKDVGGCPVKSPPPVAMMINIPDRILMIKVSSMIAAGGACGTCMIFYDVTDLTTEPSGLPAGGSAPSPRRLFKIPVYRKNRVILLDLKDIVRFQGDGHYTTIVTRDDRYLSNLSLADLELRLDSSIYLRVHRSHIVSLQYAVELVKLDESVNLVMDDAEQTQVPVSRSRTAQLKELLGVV
UniProt P57741, sequence (whole entry, looked up): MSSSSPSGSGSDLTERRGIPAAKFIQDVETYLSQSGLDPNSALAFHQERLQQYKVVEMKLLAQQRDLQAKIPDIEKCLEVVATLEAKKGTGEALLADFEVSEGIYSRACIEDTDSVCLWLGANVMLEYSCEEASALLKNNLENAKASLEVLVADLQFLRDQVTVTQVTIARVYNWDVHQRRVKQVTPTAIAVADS
UniProt P33240, sequence (whole entry, looked up): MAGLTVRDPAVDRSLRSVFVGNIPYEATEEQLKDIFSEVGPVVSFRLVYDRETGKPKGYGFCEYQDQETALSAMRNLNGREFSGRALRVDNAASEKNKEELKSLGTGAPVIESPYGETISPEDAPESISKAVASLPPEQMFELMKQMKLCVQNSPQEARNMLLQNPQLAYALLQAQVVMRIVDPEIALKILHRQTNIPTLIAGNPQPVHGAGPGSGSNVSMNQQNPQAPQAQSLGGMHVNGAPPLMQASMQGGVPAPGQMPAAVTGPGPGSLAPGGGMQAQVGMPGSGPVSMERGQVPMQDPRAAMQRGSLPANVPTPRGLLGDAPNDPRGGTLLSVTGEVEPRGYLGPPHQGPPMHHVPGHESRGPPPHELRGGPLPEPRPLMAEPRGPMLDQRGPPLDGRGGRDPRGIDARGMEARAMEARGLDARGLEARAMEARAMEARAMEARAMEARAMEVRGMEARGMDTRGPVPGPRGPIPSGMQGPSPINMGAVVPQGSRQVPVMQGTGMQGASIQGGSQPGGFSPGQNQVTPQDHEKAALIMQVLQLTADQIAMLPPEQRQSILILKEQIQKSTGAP
UniProt P01375, sequence (whole entry, looked up): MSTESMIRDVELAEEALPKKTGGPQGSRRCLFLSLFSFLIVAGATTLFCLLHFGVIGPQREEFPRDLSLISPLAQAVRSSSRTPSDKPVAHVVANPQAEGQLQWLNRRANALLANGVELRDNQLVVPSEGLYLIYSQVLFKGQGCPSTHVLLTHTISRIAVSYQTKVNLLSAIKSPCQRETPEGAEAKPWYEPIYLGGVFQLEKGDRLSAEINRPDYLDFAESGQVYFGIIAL
UniProt P18848, sequence (whole entry, unmodified, looked up): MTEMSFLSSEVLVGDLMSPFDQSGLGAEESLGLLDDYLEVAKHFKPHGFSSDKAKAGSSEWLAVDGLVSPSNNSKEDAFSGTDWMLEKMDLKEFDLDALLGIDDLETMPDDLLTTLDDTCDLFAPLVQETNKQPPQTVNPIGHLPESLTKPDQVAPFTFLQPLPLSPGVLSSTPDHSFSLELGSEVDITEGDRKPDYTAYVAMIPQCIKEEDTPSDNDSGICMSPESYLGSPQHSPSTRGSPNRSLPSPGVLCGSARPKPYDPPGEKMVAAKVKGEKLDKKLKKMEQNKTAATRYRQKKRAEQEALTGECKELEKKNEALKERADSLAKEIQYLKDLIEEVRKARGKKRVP

| Molecule | tested on | assay | system | conditions | how to read | quantity | result |
| --- | --- | --- | --- | --- | --- | --- | --- |
| GTGAATATTGCTTGAAATTTAGTTTGTGTGAAAAAAGCATATTCCAACA (dsDNA) | LHY (Arabidopsis thaliana, UniProt Q6R0H1) | EMSA | double-stranded DNA, one strand shown | – | – | binding | no binding |
| CCAATCAATAGCTGCGGCCTGCGCAGGAGA (dsDNA) | ERF-D2 full length assumed (Solanum lycopersicum, UniProt A0A3Q7JX06) | EMSA | double-stranded DNA, one strand shown | competitor | – | binding | binds |
| CAGTATGGTAGTGTGTATAATCAGTGTGGTAGTGTATTTTCATTC (dsDNA) | gbp (Glycine max, UniProt Q8LKV1) | EMSA | double-stranded DNA, one strand shown | – | – | binding | no binding |
| CTATTCATCTATCATAAATTAATTTCGATATTTTGTAAGAATAACTAATCACTGAACAAA (dsDNA) | LHY full length assumed (Arabidopsis thaliana, UniProt Q6R0H1) | EMSA | double-stranded DNA, one strand shown | – | – | binding | binds |
| GGTTAGGGTTAG (ssDNA; 5'-phosphate) | Pot1 1-301 (Mus musculus, UniProt Q91WC1) | EMSA | single-stranded DNA | – | – | binding | binds |
| DNA 1 GCAGCCAACTAAACTA / DNA 2 TAGTTTAGTTGGCTG (dsDNA; 5' 1 nt G overhang) | tnsE 379-538 (Escherichia coli, UniProt P05845) | EMSA | double-stranded DNA | – | – | binding | binds |
| ACCAAGTGGGATGCGGAGCCGCCGCCGCCGCCG (dsDNA; blunt) | WT1 zinc finger domain 323-435 (Homo sapiens) | EMSA | double-stranded DNA, one strand shown | – | – | binding | binds |
| TGGTGGATGGCGCAGTCGGCGACAA (ssDNA; 5'-amine, G-quadruplex) | TNF 77-233 (Homo sapiens, UniProt P01375) | field-effect transistor | single-stranded DNA | LOD, Hill-Langmuir fit | – | binding | binds |
| ACAAAAGTTTATAAATGACTCGGTGTTTGACATAACTCGGGGTTGTTTTTCTTTGTTAATTCACACACGGGGTTGGTGTATAAATGACTTCGGTGTTTGAAATGT (dsDNA) | MYC2 1-623 (Arabidopsis thaliana, UniProt Q39204) | EMSA | double-stranded DNA, one strand shown | – | – | binding | binds |
| GTTAATGTTGGCTTTTAAGTCGCTACGAACAAATCTACAAAAGTTTTACTTATAAATTA (dsDNA) | CCA1 full length assumed (Oryza sativa, UniProt A0A0P0XBU0) | EMSA | double-stranded DNA, one strand shown | – | – | binding | binds |
| GCGCGCGCGC (dsRNA; blunt ends) | DHX9 1-91 (Homo sapiens, UniProt Q08211) | EMSA | double-stranded RNA, one strand shown | – | – | binding | binds |
| DNA 1 CACTGGCCGTCTTACGGTCGCTCTGCTCGACG / DNA 2 CGACCGTAAGACGGCCAGTG (dsDNA; 20 bp, 3' 12 nt overhang) | RECQL 63-592 Q324A (Bos taurus, UniProt A0JN36) | fluorescence anisotropy | double-stranded DNA | added: Mg2+ 3 mM | – | Kd | 24.5 ± 2.9 nM |
| DNA 1 TGGGTGGGTAGGGTGGGTAGGGGAGGAT / DNA 2 ATCCTCCCCTA (DNA; intramolecular parallel G4, 5' overhang, 11-bp duplex) | REV1 330-833 P831L (Homo sapiens, UniProt Q9UBZ9) | FP | folded DNA | KCl 100 mM | – | Kd | 4.1 ± 1.5 nM |
| TATTTTAT (ssDNA) | Rc3h1 411-454 (Mus musculus, UniProt Q4VGL6) | NMR | single-stranded DNA | – | – | binding | binds |
| GACTCATTGTAATGCAAAAGGG (dsDNA; blunt) | SOX2 39-118 (Homo sapiens, UniProt P48431) | NMR | double-stranded DNA, one strand shown | – | – | binding | binds |
| CTCTAGGAAGACATAGAAGATC (dsDNA) | SPL2 1-415 (Malus domestica, UniProt D9ZJC1) | EMSA | double-stranded DNA, one strand shown | – | – | binding | no binding |
| ACAAGAACAUCAAAGUCGAAGAACCUUCCG (ssRNA) | IGF2BP3 1-579 (Homo sapiens, UniProt O00425) | pull-down | RNA | – | – | binding | binds |
| CACTCCAGTACTGCACTC (dsDNA) | ATF4 276-341 C310A (Homo sapiens, UniProt P18848) | fluorescence polarization | double-stranded DNA, one strand shown | added: Mg2+ 10 mM | – | binding | no binding |
| AAACGCCAGACACACGCGCGAAAAGAAGCGCG (dsDNA) | PFD3 1-195 (Arabidopsis thaliana, UniProt P57741) | EMSA | double-stranded DNA, one strand shown | – | – | binding | no binding |
| ATAAGTCTAAGACAATTGTTCCTTTTTCTT (dsDNA) | HY5 | EMSA | double-stranded DNA, one strand shown | – | – | binding | binds |
| GUGUGUGUGUGUGUGU (ssRNA) | CSTF2 1-107 (Homo sapiens, UniProt P33240) | NMR titration | RNA | 27 °C | – | binding | binds |
| ATAAGTCACATGATGATATTTGATTTTATTATATTTTTAAAAAAAGTAAAAAATAAAAAGTAGTTTATTTTTAAAAAATAAAATTTAAAATATTTCACAAAATGATTTCCGAA (dsDNA) | CENP-I 1-229 R226D (Thermochaetoides thermophila, UniProt G0SFF7) | EMSA | double-stranded DNA, one strand shown | – | – | binding | binds |

| Molecule | tested on | assay | system | conditions | how to read | quantity | result |
| --- | --- | --- | --- | --- | --- | --- | --- |
| GCAGGAGAAACACGTGTTGCCACTTT (dsDNA) | HY5 | EMSA | double-stranded DNA, one strand shown | – | – | binding | binds |
| AAGGTGTGTGGGTGTGGTAATC (dsDNA) | RAP1/Yku70/Yku80 | mass photometry | double-stranded DNA, one strand shown | – | – | binding | binds |
| TCGGGTTTCATGTACGTT (dsDNA; blunt) | rcoM1 full length assumed (Paraburkholderia xenovorans, UniProt Q13YL3) | fluorescence anisotropy | double-stranded DNA, one strand shown | Fe(II)-CO | – | binding | no binding |
| GAAAATTTAAGGCGTTAAAAAATAAGGTTTAGAGTGGGTCGGATAAAAATTTGAAAATAGATAT (dsDNA) | Auxin-responsive protein 1-232 (Prunus persica, UniProt M5VWY4) | EMSA | double-stranded DNA, one strand shown | – | – | binding | no binding |
| AGGGTTAGGGTTAGGGTTAGGG (G-quadruplex DNA; hybrid) | PARP2 full length, 1-570 (Homo sapiens) | EMSA | folded DNA | – | – | binding | no binding |
| DNA 1 AAGGTGTGTGGGTGTGGTAATTTTTTTTTTTTT / DNA 2 ATTACCACACCCACACACCTT (dsDNA; 3' 12 nt overhang) | RAP1/Yku70/Yku80 | EMSA | double-stranded DNA | – | – | binding | binds |
| Peginesatide | UT7/EPO | RT-qPCR, item: MYC | – | concentration not given, 90 min, normalized to HPRT1 | reference: vehicle | mRNA level | 2.9 fold |
| CGCGCG (dsDNA; blunt self-complementary duplex) | ADAR 133-199 (Homo sapiens, UniProt P55265) | CD | double-stranded DNA, one strand shown | – | – | binding | binds |
| TGTTGTGTGGAATTGTGAGCGGATAACAATTTCACACAGG (dsDNA (Escherichia coli); blunt) | lacI full length assumed D149C (Escherichia coli, UniProt P03023) | filter binding | double-stranded DNA, one strand shown | – | – | binding | binds |
| GCATATGGCAGCTTGAACAGTGAGCGCAACGCAATTTTGCAGCGA (dsDNA) | lacI full length assumed V52A (Escherichia coli, UniProt P03023) | BLI | double-stranded DNA, one strand shown | – | – | binding | binds |
| colistin | Klebsiella pneumoniae | broth microdilution | clinical isolate RKI-No_577/15 | – | – | MIC | ≤ 0.5 µg/mL |
| GTGTGGTTAATATG (dsDNA) | RNJ 604-911 (Arabidopsis thaliana, UniProt Q84W56) | EMSA | double-stranded DNA, one strand shown | – | – | binding | no binding |
| ACCAAGCGTGATGCGGAGCCGCCGCCGCCGCCG (dsDNA; blunt) | WT1 zinc finger domain 323-435 (Homo sapiens) | EMSA | double-stranded DNA, one strand shown | – | – | binding | no binding |
| GSGAGICTIV | human SCRIB PDZ3-4 tandem (MBP fusion) | surface plasmon resonance | peptide | concentration not given | higher = stronger binding | normalised SPR binding response | 43.3 normalised RU |
| CTTCTTTATTTTATTGTCCACGTAAATAAAAATCCATTATCT (dsDNA) | Transcription factor RF2b full length assumed (Ziziphus jujuba, UniProt A0A6P3ZIC3) | EMSA | double-stranded DNA, one strand shown | – | – | binding | binds |
| GGTGGTGGTGGTGGTGGT (ssDNA) | recA full length assumed F204S (Escherichia coli, UniProt P0A7G6) | fluorescence anisotropy | single-stranded DNA | added: ATPγS | – | binding | binds |
| AGAGAGAGAG (ssRNA) | EIF4A1 19-406 (Homo sapiens, UniProt P60842) | X-ray crystallography | RNA | added: AMPPNP, silvestrol | – | binding | binds |
| GSGAGKETRV | human SCRIB PDZ3-4 tandem (MBP fusion) | automated holdup | peptide, crude extract | concentration not given, uncorrected, unit not given | reference: biotin control resin, higher = stronger binding | binding intensity | 0.804 |
| AACAGAAUGGGACUGUUC (ssRNA) | NCL 300-650 (Homo sapiens, UniProt P19338) | pull-down competition, competition | RNA | – | – | binding | binds |
| DNA 1 TTAAAACATGTTGAGCTACAGCACCAGATTCAGCAATTAAGCTCTAAGCCATCCGCAAAAATGACCTCTTATCAA / DNA 2 TTGATAAGAGGTCATTTTTGCGGATGGCTTAGAGCTTAATTGCTGAATCTGGTGCTGTAGCTCAACATGTTTTAAATATGCAA (dsDNA; 3' 8 nt overhang) | MGM101 23-269 (Saccharomyces cerevisiae, UniProt P32787) | native MS | double-stranded DNA | – | – | binding | binds |
| TATCGAGTTGCGCCCTCCACTCCTCGGTG (dsDNA) | Ethylene-responsive transcription factor 13 (Nicotiana attenuata, UniProt A0A1J6JM52) | EMSA | double-stranded DNA, one strand shown | – | – | binding | binds |
| UUUUUUUUUUUUUUUUUUUUUUUUUUUUUUUUUUUUUUUU (ssRNA) | NR1I2 (Homo sapiens, UniProt O75469) | EMSA | RNA | 200 nM RNA | – | binding | no binding |

Repeated from above:
| Molecule | tested on | assay | system | conditions | how to read | quantity | result |
| --- | --- | --- | --- | --- | --- | --- | --- |
| ACAAAAGTTTATAAATGACTCGGTGTTTGACATAACTCGGGGTTGTTTTTCTTTGTTAATTCACACACGGGGTTGGTGTATAAATGACTTCGGTGTTTGAAATGT (dsDNA) | MYC2 1-623 (Arabidopsis thaliana, UniProt Q39204) | EMSA | double-stranded DNA, one strand shown | – | – | binding | binds |
| GTTAATGTTGGCTTTTAAGTCGCTACGAACAAATCTACAAAAGTTTTACTTATAAATTA (dsDNA) | CCA1 full length assumed (Oryza sativa, UniProt A0A0P0XBU0) | EMSA | double-stranded DNA, one strand shown | – | – | binding | binds |
| GCGCGCGCGC (dsRNA; blunt ends) | DHX9 1-91 (Homo sapiens, UniProt Q08211) | EMSA | double-stranded RNA, one strand shown | – | – | binding | binds |
| DNA 1 CACTGGCCGTCTTACGGTCGCTCTGCTCGACG / DNA 2 CGACCGTAAGACGGCCAGTG (dsDNA; 20 bp, 3' 12 nt overhang) | RECQL 63-592 Q324A (Bos taurus, UniProt A0JN36) | fluorescence anisotropy | double-stranded DNA | added: Mg2+ 3 mM | – | Kd | 24.5 ± 2.9 nM |
| DNA 1 TGGGTGGGTAGGGTGGGTAGGGGAGGAT / DNA 2 ATCCTCCCCTA (DNA; intramolecular parallel G4, 5' overhang, 11-bp duplex) | REV1 330-833 P831L (Homo sapiens, UniProt Q9UBZ9) | FP | folded DNA | KCl 100 mM | – | Kd | 4.1 ± 1.5 nM |
| TATTTTAT (ssDNA) | Rc3h1 411-454 (Mus musculus, UniProt Q4VGL6) | NMR | single-stranded DNA | – | – | binding | binds |
